Results of several laboratories.
Numbered parts are unrelated; each lists some results of a single study.

Set 1 — method: EMSA with sequencing; molecule type: double-stranded DNA, one strand shown; matrix: in vitro; concentration: 10 and 20 nM; baseline: negative control set to 0; direction: higher = stronger binding
Target: Hepatocyte nuclear factor 3-alpha (Foxa1, Mus musculus, UniProt P35582, residues 1-468, full length assumed)
Notes: whole designed probe, mean of two concentrations, ends assumed
Residues (chain): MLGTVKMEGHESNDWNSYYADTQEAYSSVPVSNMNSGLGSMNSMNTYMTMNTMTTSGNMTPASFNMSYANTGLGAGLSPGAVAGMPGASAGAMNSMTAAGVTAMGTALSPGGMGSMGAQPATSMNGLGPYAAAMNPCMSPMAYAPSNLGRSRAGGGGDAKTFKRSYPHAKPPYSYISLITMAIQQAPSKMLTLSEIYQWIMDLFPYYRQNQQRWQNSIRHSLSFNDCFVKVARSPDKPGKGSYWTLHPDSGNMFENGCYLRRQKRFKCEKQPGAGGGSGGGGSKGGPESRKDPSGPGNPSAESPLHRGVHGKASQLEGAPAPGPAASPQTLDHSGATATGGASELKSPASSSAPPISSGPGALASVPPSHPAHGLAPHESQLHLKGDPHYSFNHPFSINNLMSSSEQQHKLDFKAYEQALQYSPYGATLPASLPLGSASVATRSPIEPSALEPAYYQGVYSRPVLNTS
`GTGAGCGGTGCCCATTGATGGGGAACTCTTGTCCTCCCCAGCCACTCTGCAAGGGAGTGGAAGGCGTCTACTACACGTCAGCATCCCTCTTCCTCGGGGCGGGGGTGCACCTTGGAAGTGCAAACATGTCTTATTTATATATGAATGAAGTAATAGATAAGAAGCAATGCCCTCCCAGGAATCACACTGTGACTTCTACCCTTGGGGAGCGGGCAGAGTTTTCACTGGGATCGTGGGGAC` — result for “normalised bound fraction”: 0.222 ratio.
`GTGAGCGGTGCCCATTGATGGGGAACTGTATCCATCTGGGCAGTATCTTCTCTGGGCCTGGCCTGTCATAGGTGCTTCAGGTTTCCCCATTTGAACCAGATACCAGTCGGGTTACCGGATGTTTGCTTAAAATGAGTCATAATTCCTGTGGGCTTCCTGCTCTGCTTCCAGCTAGGACTGATCGAATCAGTCTGGATTTTCCTTGGGGTGATCCGCAGGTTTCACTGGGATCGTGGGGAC`: “normalised bound fraction” 0.126 ratio.
`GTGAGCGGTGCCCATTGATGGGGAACATAAAGCTTTTCACCTGACGCAGGATAATAGCGAGTGCATGTGTGCTGGTTTGTTTACTGTGAGTCTCTCAGAGGAAATCATGTGCATCTGTCTGTTTACTTTTCCGTGGAACCTAGATGCTCACCTCTAAAAATAATCTTGCTCGGTGTTAGAGTTTCTGTGACACAGAGGTACATACCTCACATGCTCTCCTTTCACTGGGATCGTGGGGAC`: “normalised bound fraction” 0.488 ratio.
`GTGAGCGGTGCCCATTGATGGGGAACATCTTCCCCCTCTTCCTTGCCCCACCAGCTCACCTACGGGGGTTATTTGCACAAAGGAAAATAAATAAAGCCGGCATTCGTTAACGCAGTTCACGCGCATACTGCTGTTTGCTCTGGATGAATCATGGTCCTTTGGCGAGGCGTGGCTCCGGGAGAGCAAAGCACCGTGTCAGGGCCATGATCCGGGCTCGCCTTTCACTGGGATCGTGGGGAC` — result for “normalised bound fraction”: 0.392 ratio.
Under “normalised bound fraction”, `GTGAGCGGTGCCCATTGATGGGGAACTGTATCCATCTGGGCAGTATCTTCTCTGGGCCTGGCCTGTCATAGGTGCTTCAGGTTTCCCCATTTGAACCAGATACCAGTCGGGTTACCGGAAGATTGCTTAAAATGAGTCATAGGCTTCCTGCTATTCCTGTGCTGCTTCCAGCTAGGACTGATCGAATCAGTCTGGATTTTCCTTGGGGTGATCCGCAGGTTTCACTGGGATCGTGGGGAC` is recorded as -0.09 ratio.
Under “normalised bound fraction”, `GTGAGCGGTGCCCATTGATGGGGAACGACAGTACATGTTTTAGGATTTTTGGACCACACAGTCTCTGTCACAATGACTCAGCTTTGCCATTGTAGCGTGCAAACAGCCACAAACCATATGCAAACAAATGTATGCCAATAAAACTTTATTGAGGGTGTGGTTACAAAAGCAGGAGGACAGTGGAGTTGGCTTGCAGACAGTCATTTGCAGAGCCCTGATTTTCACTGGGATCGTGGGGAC` is recorded as 0.383 ratio.
`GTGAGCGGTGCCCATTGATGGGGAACATCTCTGGGTTCTTCCCTCTGAGAATCTCCCCCACCTCAGTTAAACTGCGCATCATAACTGCATGGCTATTTGAGATATTATTTTTAAATAACATGTTTACTTTGTGAAAGCTCTTAGTTAGGGAAACCAGAGGTCAGCATTGCAGTTTGTTTACAGATCTGTGAAATGGCTTTGCCCTGCTACCCCCTTATTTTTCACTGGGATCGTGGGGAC` — result for “normalised bound fraction”: 0.484 ratio.
For `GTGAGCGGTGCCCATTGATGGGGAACCAGCCCACATGCCTTTGTTGTGGCTTCCAAGTTTTCTTTTCCACGTCACCTGCGCTGCTTGCTCTCTGGTTTTGTTGACTTTAGTGCTGTCTCTGTTTGCTCTGGCTGAGCCAACAGCCTCAGGATGAAACTCTGAGCCCAGGAAGTGTGAACCTGAGAGGCAGCAGGCTGGGGGTGGGGACGGAGGCAAATGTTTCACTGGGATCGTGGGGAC`, “normalised bound fraction” read 0.435 ratio.

Set 2 — method: RNA Bind-n-Seq; molecule type: RNA; matrix: in vitro; concentration: 200 nM; notes: whole 134-nt RNA, ends assumed; together with: 150 mM KCl; baseline: input library; direction: higher = stronger binding
Target: Fragile X messenger ribonucleoprotein 1, C-terminal low-complexity region (Fmr1, Mus musculus, UniProt P35922)
`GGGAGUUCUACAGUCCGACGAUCUAAGAAGGAAAUUGAGAGGAGAAAAACUGGAAAAGAAAUGUUGGAUUAUAAAAGAAAACAAGAAGAAGAAUUAACAAAAAGAAUGCUGGAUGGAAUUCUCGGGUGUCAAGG` gave a log2 enrichment of -0.594.
With `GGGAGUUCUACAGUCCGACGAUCUUUCUUCCCCCACAGUUCAUCCAUGAGCUCGGAUUUCCCACAUUACAACUUCAGGAUGCCUAAUAUUGGAUUCCAGAAUCUGCCUCUCAAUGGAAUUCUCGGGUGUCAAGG` the log2 enrichment was 0.828.
`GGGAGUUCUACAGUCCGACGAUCUAACUUUAGAGGAGGAUCUGAUGGAUAUGGCAGUGGACGUGGAUUUGGGGAUGGCUAUAAUGGGUAUGGAGGAGGAACUGGAGGUGGCAAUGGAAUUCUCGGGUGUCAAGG` gave a log2 enrichment of 0.32.
`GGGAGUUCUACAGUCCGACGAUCUUUGAGGUCAAACGCCGCGGGGAACUGCAGCUGAUUAAGAUCUUCCAAUCCUCGGUGUUUGAGGCCUUCCUCAAGGGCAGCACGCUGGAAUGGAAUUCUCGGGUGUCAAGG` gave a log2 enrichment of -1.84.
`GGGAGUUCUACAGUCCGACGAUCGUCCUGUGCUACACAUCGUAUGUACCGAAUCGGGAAAAAAAGGGUUUUUGGGUUUGGGAAAGUAUUAUGUUACGCCGUUCGGAUCUGCACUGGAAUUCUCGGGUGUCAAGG` has a log2 enrichment of -0.318.
The log2 enrichment of `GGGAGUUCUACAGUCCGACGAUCUGGCAGGUGGAUUUUGUUUAUUUUUUUAGCUCAUUUCCAGGGGUGGGAAUUUUUUUUUAAUAUGUGUCAUGAAUAAAGUUGUUUUUGAAAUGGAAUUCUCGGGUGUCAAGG` is reported as 0.104.
`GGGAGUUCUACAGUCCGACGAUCUCCUGUGCUACACAUCGUAUGUACCGAAUCGGUUUUUUGGGGUUUUUUGGGGUUUUUUGGAAAGUAUUAUGUUACGCCGUUCGGAUCUGCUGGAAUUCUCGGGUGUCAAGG` has a log2 enrichment of 0.0133.
For `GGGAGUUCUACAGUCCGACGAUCUGGGAGGUGGAUUUUGUUUAUUUUUUUAGCACAUUUCCAGGGGUGGGAAUUUUUUUUUAAUAUGUGUCAUGAAUAAAGUUGUUUUUGAAAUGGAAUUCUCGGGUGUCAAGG`, the log2 enrichment was 0.339.
For `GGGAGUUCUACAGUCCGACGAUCAAGUCCUGUGCUACACAUCGUAUGUACCGAAUCGGCCCGGGGCCCGGGGCCCGGGGAAAGUAUUAUGUUACGCCGUUCGGAUCUGCACUUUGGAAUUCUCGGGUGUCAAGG`, the log2 enrichment was -0.667.
`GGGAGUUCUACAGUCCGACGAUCUCAAGUCCUGUGCUACACAUCGUAUGUACCGAAUCGGGUUUGGGAAAGGGUGGGAAAGUAUUAUGUUACGCCGUUCGGAUCUGCACUUCCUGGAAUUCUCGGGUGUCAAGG` has a log2 enrichment of 1.24.

Set 3 — method: aptamer microarray, sandwich; molecule type: DNA with 2'F-ANA; matrix: in vitro; concentration: 200 nM; together with: Cy3 exosite-II aptamer, 400 nM; direction: higher = stronger binding; strand: GGTTGGTGTGGTTGG
Target: Prothrombin, mature alpha-thrombin (F2, Homo sapiens, UniProt P00734)
Notes: whole 15-mer aptamer, many near background
`2'F-ANA at 3 5 6 7 8 9 10 12 13 14`: “mean fluorescence intensity” 51.1 a.u.
`2'F-ANA at 1 2 5 7 10 12 14` — result for “mean fluorescence intensity”: 49.2 a.u.
For `2'F-ANA at 2 3 4 5 7 14 15`, “mean fluorescence intensity” read 53 a.u.
For `2'F-ANA at 2 3 6 7 8 9 10 11 12 14 15`, “mean fluorescence intensity” read 239 a.u.
`2'F-ANA at 1 3 4 6 7 8 12 15`: “mean fluorescence intensity” 423 a.u.
Under “mean fluorescence intensity”, `2'F-ANA at 4 6 7 10 11 13` is recorded as 66.1 a.u.
`2'F-ANA at 9 13` — result for “mean fluorescence intensity”: 443 a.u.
For `2'F-ANA at 1 3 5 7 10 11 15`, “mean fluorescence intensity” read 64.5 a.u.
`2'F-ANA at 4 5 6 7 10 11 12 14` — result for “mean fluorescence intensity”: 44.1 a.u.
For `2'F-ANA at 1 4 6 7 8 9 10 11 13 14 15`, “mean fluorescence intensity” read 48.4 a.u.
For `2'F-ANA at 1 4 5 6 7 8 11 12 13 14 15`, “mean fluorescence intensity” read 47.2 a.u.
Under “mean fluorescence intensity”, `2'F-ANA at 3 4 5 7 8 10 13 14 15` is recorded as 85.2 a.u.
Under “mean fluorescence intensity”, `2'F-ANA at 1 2 3 5 7 12 14 15` is recorded as 64.6 a.u.
For `2'F-ANA at 1 2 3 5 6 7 10 11 12`, “mean fluorescence intensity” read 48.2 a.u.
`2'F-ANA at 1 2 4 9 11 13 15` — result for “mean fluorescence intensity”: 69.8 a.u.
For `2'F-ANA at 2 4 10 12`, “mean fluorescence intensity” read 150 a.u.
Under “mean fluorescence intensity”, `2'F-ANA at 1 2 4 9 10 12` is recorded as 58.9 a.u.
`2'F-ANA at 1 2 3 5 7 9 13 15` — result for “mean fluorescence intensity”: 50.1 a.u.
`2'F-ANA at 1 3 4 6 8 9 10 11 13 15` — result for “mean fluorescence intensity”: 63 a.u.
For `2'F-ANA at 3 4 6 13 14 15`, “mean fluorescence intensity” read 244 a.u.
Under “mean fluorescence intensity”, `2'F-ANA at 5 6 7 8 10 11 15` is recorded as 47.3 a.u.
For `2'F-ANA at 1 3 4 5 6 12 13 14`, “mean fluorescence intensity” read 48 a.u.
`2'F-ANA at 1 2 5 11 12 14`: “mean fluorescence intensity” 46.1 a.u.
`2'F-ANA at 1 2 3 5 7 8 10 11 12 13` — result for “mean fluorescence intensity”: 111 a.u.
`2'F-ANA at 1 4 7 8 10 11 13 14` — result for “mean fluorescence intensity”: 45.4 a.u.

Set 4 — method: protein binding microarray; molecule type: double-stranded DNA, one strand shown; matrix: in vitro; concentration: not given; baseline: not given; direction: higher = stronger binding
Target: Histone acetyltransferase KAT6A, both winged helices, GST fusion (KAT6A, Homo sapiens, UniProt Q92794, residues 1-181)
Notes: 8-mer, flanks averaged, mean of 2 arrays, mostly near background
Target sequence (chain): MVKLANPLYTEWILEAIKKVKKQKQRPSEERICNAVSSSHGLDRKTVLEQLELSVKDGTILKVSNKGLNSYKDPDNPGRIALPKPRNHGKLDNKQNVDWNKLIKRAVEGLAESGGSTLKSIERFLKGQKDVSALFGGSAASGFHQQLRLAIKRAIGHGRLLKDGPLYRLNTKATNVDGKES
`AAGGTGGC` has an E-score of -0.207.
With `ACTGTTTC` the E-score was 0.0624.
The E-score of `AAAGGTGA` is reported as -0.177.
`CCTGGCAC` gave an E-score of -0.181.
For `GTGATCGA`, the E-score was -0.0482.
`AGTAAATG` gave an E-score of -0.0471.
`ATTACACG` has an E-score of 0.0587.
`AACTATAT` gave an E-score of -0.0414.
For `CAGATGGC`, the E-score was -0.0901.
The E-score of `GCCTAACC` is reported as -0.113.
With `CTCAAAAA` the E-score was -0.129.
The E-score of `ACCTGTAA` is reported as -0.024.
With `AGGAAACT` the E-score was -0.244.
With `TGTTCTAA` the E-score was -0.025.
With `TGCTCAAA` the E-score was -0.139.
For `CGCACGGA`, the E-score was 0.311.
For `ATTCTAGC`, the E-score was -0.131.
`ATCCTTAC` has an E-score of 0.00834.
The E-score of `CATCAGCG` is reported as 0.225.
With `AGCTCCTC` the E-score was -0.245.
`AGATAACG` has an E-score of 0.0862.

For quick reference, copied from above (set 3):
Under “mean fluorescence intensity”, `2'F-ANA at 4 6 7 10 11 13` is recorded as 66.1 a.u.
`2'F-ANA at 9 13` — result for “mean fluorescence intensity”: 443 a.u.
For `2'F-ANA at 1 3 5 7 10 11 15`, “mean fluorescence intensity” read 64.5 a.u.
`2'F-ANA at 4 5 6 7 10 11 12 14` — result for “mean fluorescence intensity”: 44.1 a.u.
